Measured values of several laboratories.
Compare with care: the assays were run in different laboratories. Several values in a cell are separate wells, animals, samples, runs or records.

Under “log2 fold change”, `c1ccc(-c2n[nH]cc2-c2ccnc3ccccc23)nc1` is recorded as -0.06 (KIN2 (Candida albicans); kinase binding, MIB/MS competition; Candida albicans lysate; 10 µM; reference: DMSO).
Under “log2 fold change”, `Cc1ncsc1-c1ccc(C(C)NC(=O)C2CC(O)CN2C(=O)C(NC(=O)CCCCCCCCCCN2CCCC(Nc3ncc(Cl)c(Nc4ccccc4S(=O)(=O)C(C)C)n3)C2)C(C)(C)C)cc1` (stereo not drawn) is recorded as -1.07 (22Rv1; RNA-seq, refers to: ZNF641 mRNA; concentration not given; reference: DMSO).
`C=CC(=O)N1[C@@H](c2ccc3c(c2)OCO3)c2[nH]c3ccccc3c2C[C@H]1C(=O)N1CCN(C)CC1`: “log2 fold change” 0 (CCNE1 WT-3xFLAG:CDK2 complex; co-IP TMT proteomics, refers to: ELP4; HEK-293T; 20 µM, 6 h; reference: DMSO).
For `COC1CN([C@H]2CC[C@H]([C@@]3(C)Oc4c(Cl)cc(C(=O)NCc5c(SC)cc(C)[nH]c5=O)c(C)c4O3)CC2)C1`, “log2 fold change” read 1.02 (RNA-seq, refers to: EIF5A2; human, whole blood; dose not given, 24 h; reference: pretreatment baseline).
`CCN(CC)CC(=O)Nc1cccc(-n2cc(-c3ccc4ccc(-c5cn(-c6cccc(NC(=O)CN(CC)CC)c6)nn5)cc4c3)nn2)c1` has a fold regulation of -1.39 (RCC4; PCR angiogenesis array, refers to: MMP14; 5 x IC50, 4 h, normoxia; reference: untreated).
For `Nc1ncc(-c2cc(-c3cnn(CC(F)(F)F)c3)ncc2F)nc1C(=O)NC1CNCC(F)C1` (stereo not drawn), the remaining binding was 87% (INSR; KINOMEscan; 1 µM; reference: DMSO control).
With `COc1ccccc1-c1ccncc1C(=O)Nc1nnc(OCc2ccc(Cl)cc2)s1` the colony survival was 71.5% (MDA-MB-436 BRCA1-mutant; colony formation; 0.75 µM; reference: vehicle (DMSO)).
For `C=CC(=O)Nc1cccc(Cn2ncc3cnc(Nc4cnn(CCOC)c4)nc32)c1`, “percent of control” read 48% (MAP4K2 human; binding, KINOMEscan; 100 nM; lower = stronger binding).
Under “normalised protein abundance”, `COc1cc2c(NC3CCN(C(C)C)CC3)cc(N3CCOCC3)nc2cc1OCCCN1CCCC1` is recorded as -0.0469 and 0.022 and 0.00218 and 0.0105 and 0.0128 and 0.0497 and -0.0503 and -0.0198 (TMT quantitative proteomics, refers to: GOT1 (cytoplasmic); APP AD model mice, hippocampus; dose not given).

A few entries again:
Under “log2 fold change”, `Cc1ncsc1-c1ccc(C(C)NC(=O)C2CC(O)CN2C(=O)C(NC(=O)CCCCCCCCCCN2CCCC(Nc3ncc(Cl)c(Nc4ccccc4S(=O)(=O)C(C)C)n3)C2)C(C)(C)C)cc1` (stereo not drawn) is recorded as -1.07 (22Rv1; RNA-seq, refers to: ZNF641 mRNA; concentration not given; reference: DMSO).
